{"data": "Measurements from different studies", "note": "Each line is one published result; not all experiments were run side by side. ± gives the spread as reported."}
{"Structure (SMILES)": "CN1CCN(S(=O)(=O)c2cc([N+](=O)[O-])ccc2N(CCOS(C)(=O)=O)CCOS(C)(=O)=O)CC1", "cell line": "sample BA T-ALL PDX cells", "test": "cell viability", "test system": "ex vivo", "conditions": "48 h, together with: AKR1C3 inhibitor 1 µM, 1 h pretreatment", "IC50": "13 µM"}
{"Structure (SMILES)": "COc1cccc2c1C(=O)c1c(O)c3c(c(O)c1C2=O)C[C@@](O)(C(=O)CO)C[C@@H]3O[C@H]1C[C@H](N)[C@H](O)[C@H](C)O1", "cell line": "HeLa expressing mutant P-gp 14", "test": "cell viability", "conditions": "48 h", "IC50": "0.128 ± 0.023 µM"}
{"Structure (SMILES)": "COc1c(C)c2c(c(O)c1C/C=C(\\C)CCC(=O)O)C(=O)OC2", "cell line": "kidney cancer cell lines", "test": "cell proliferation", "conditions": "average over lines", "IC50": "0.851 µM"}
{"Structure (SMILES)": "CO[C@H]1C[C@H](O[C@H]2[C@H](C)O[C@@H](O[C@@H]3/C(C)=C/C[C@@H]4C[C@@H](C[C@]5(C=C[C@H](C)[C@@H](C6CCCCC6)O5)O4)OC(=O)[C@@H]4C=C(C)[C@@H](O)[C@H]5OC/C(=C\\C=C\\[C@@H]3C)[C@]54O)C[C@@H]2OC)O[C@@H](C)[C@@H]1O", "cell line": "CAR-luc cells", "IC50": "12.5 ± 0.34 µM"}
{"Structure (SMILES)": "C[C@H]1COCCN1c1nc(NCc2cccnc2C(F)(F)F)c2cccnc2n1", "cell line": "HepG2 spheroids", "test": "cytotoxicity", "IC50": "190 µM"}
{"Structure (SMILES)": "O=C1C=CC(=O)c2c(O)cccc21", "cell line": "HFF-1", "test": "cytotoxicity, MTT", "conditions": "48 h", "IC50": "3.8 µM"}
{"Structure (SMILES)": "Cc1ccc(NS(=O)(=O)c2cccc(C(=O)NC3CCN(c4ncnc5[nH]cnc45)CC3)c2)cc1", "cell line": "A549-ACE2", "IC50": "> 200 µM"}
{"Structure (SMILES)": "C=C1CC[C@@H]2[C@](C)(CCC[C@]2(C)C(=O)O)[C@H]1CC/C(C)=C/CO", "cell line": "neuroblastoma M2, MYCN overexpressing", "test": "cell viability, SRB", "conditions": "together with: doxycycline", "IC50": "2.82 µg/mL"}
{"Structure (SMILES)": "CC[C@H](C)[C@H](NC(=O)CN)C(=O)NCC(=O)N[C@@H](C)C(=O)N[C@H](C(=O)N[C@@H](CC(C)C)C(=O)N[C@@H](CCCCN)C(=O)N[C@H](C(=O)N[C@@H](CC(C)C)C(=O)N[C@H](C(=O)N[C@H](C(=O)NCC(=O)N[C@@H](CC(C)C)C(=O)N1CCC[C@H]1C(=O)N[C@@H](C)C(=O)N[C@@H](CC(C)C)C(=O)N[C@H](C(=O)N[C@@H](CO)C(=O)N[C@@H](Cc1c[nH]c2ccccc12)C(=O)N[C@H](C(=O)N[C@@H](CCCCN)C(=O)N[C@@H](CCCNC(=N)N)C(=O)N[C@@H](CCCCN)C(=O)N[C@@H](CCCNC(=N)N)C(=O)N[C@@H](CCC(N)=O)C(=O)N[C@@H](CCC(N)=O)C(N)=O)[C@@H](C)CC)[C@@H](C)CC)[C@@H](C)O)[C@@H](C)O)C(C)C)C(C)C", "cell line": "human red blood cells", "test": "haemolysis", "conditions": "pH 7.4, 37 °C", "how to read": "relative to: Triton X-100", "IC50": "13.1 µM"}
{"Structure (SMILES)": "O=c1ccn([C@@H]2O[C@H](CO)[C@@H](O)[C@H]2O)c(=S)[nH]1", "cell line": "HepG2", "test": "item: succinate dehydrogenase subunit A", "conditions": "120 h", "IC50": "> 50 µM"}
{"note": "A few entries again:"}
{"Structure (SMILES)": "O=c1ccn([C@@H]2O[C@H](CO)[C@@H](O)[C@H]2O)c(=S)[nH]1", "cell line": "HepG2", "test": "item: succinate dehydrogenase subunit A", "conditions": "120 h", "IC50": "> 50 µM"}
